Measured values gathered from unrelated publications.
Lines come from different studies, so protocols differ. “And” joins repeats or separate records; there may be more than shown.
Organism: Staphylococcus aureus

SMILES | test | test system | setting | scale | measurement | value
N=C(N)NCCC[C@H](NC(=O)[C@H](CCCNC(=N)N)NC(=O)[C@H](CCCNC(=N)N)NC(=O)[C@H](CCC(N)=O)NC(=O)[C@H](CCCNC(=N)N)NC(=O)[C@H](CCCNC(=N)N)NC(=O)[C@H](CCCCN)NC(=O)[C@H](CCCCN)NC(=O)[C@H](CCCNC(=N)N)NC(=O)CNC(=O)[C@H](Cc1ccc(O)cc1)NC(=O)[C@H](Cc1ccccc1)NC(=O)[C@H](Cc1ccccc1)NC(=O)[C@H](Cc1ccccc1)NC(=O)OCC1c2ccccc2-c2ccccc21)C(=O)O |  | 29213, C57BL/6 mouse peritonitis-sepsis, liver, kidney, spleen, lung | 10 mg/kg, 48 h | baseline: control | bacterial load | decreased
CC[C@H](C)[C@H](NC(=O)[C@H](CCCCN)NC(=O)[C@H](CCCCN)NC(=O)[C@H](Cc1ccccc1)NC(=O)[C@H](Cc1ccccc1)NC(=O)[C@H](CCCCN)NC(=O)[C@H](CCCCN)NC(=O)[C@H](Cc1ccccc1)NC(=O)[C@H](CCCNC(=N)N)NC(=O)[C@@H](N)CCCCN)C(=O)N[C@@H](CCCCN)C(=O)N[C@@H](CCCCN)C(=O)N[C@@H](CO)C(=O)N[C@H](C(=O)N[C@@H](CCCCN)C(=O)N[C@@H](CCCCN)C(=O)N[C@@H](CCCNC(=N)N)C(=O)N[C@H](C(=O)N[C@@H](CCCCN)C(=O)N[C@@H](CCCCN)C(=O)N[C@@H](CC(C)C)C(=O)N[C@@H](Cc1ccccc1)C(=O)N[C@@H](CCCCN)C(=O)N[C@@H](CCCCN)C(=O)N1CCC[C@H]1C(=O)N[C@@H](CCCNC(=N)N)C(=O)N[C@H](C(=O)N[C@H](C(=O)N1CCC[C@H]1C(=O)N[C@H](C(=O)N[C@@H](CO)C(=O)N[C@H](C(=O)N1CCC[C@H]1C(=O)N[C@@H](Cc1ccccc1)C(=O)O)[C@@H](C)CC)[C@@H](C)CC)[C@@H](C)CC)C(C)C)C(C)C)C(C)C |  | ATCC 29213 | 20 h, 37 °C |  | MBC | 16 µg/mL
CC(C)[C@H]1NC(=O)CNC(=O)[C@H](CO)NC(=O)[C@@H](Cc2c(-c3ccc(-c4ccc5ccccc5c4)cc3)[nH]c3ccccc23)NC(=O)[C@@H](CO)NC(=O)[C@@H](C(C)C)NC(=O)[C@H](Cc2ccccc2)NC1=O | broth dilution |  |  |  | MIC90 | > 50 µM
CC[C@H](C)[C@@H]1NC(=O)[C@H](CO)NC(=O)[C@H](CCCCN)NC(=O)[C@@H]2CSSC[C@@H](C(=O)N[C@@H](Cc3ccc(O)cc3)C(N)=O)NC(=O)[C@H](CCCCN)NC(=O)[C@@H]3CSSC[C@H](NC(=O)[C@H](CCCNC(=N)N)NC(=O)[C@H](CC(C)C)NC(=O)[C@H](CC(=O)O)NC(=O)[C@H](CC(=O)O)NC(=O)[C@H](CCC(=O)O)NC(=O)[C@H](CC(N)=O)NC(=O)[C@H](Cc4c[nH]c5ccccc45)NC(=O)[C@@H]4CCCN4C(=O)CNC(=O)[C@H](CC(N)=O)NC(=O)[C@@H](NC(=O)CNC(=O)[C@H](Cc4ccccc4)NC(=O)CN)CSSC[C@H](NC(=O)[C@H](Cc4ccc(O)cc4)NC(=O)CNC(=O)CNC(=O)[C@H](CCCCN)NC(=O)[C@H](Cc4ccc(O)cc4)NC(=O)CNC(=O)[C@H](CCCCN)NC1=O)C(=O)N[C@@H](C)C(=O)N[C@@H](CCCCN)C(=O)NCC(=O)NCC(=O)N[C@@H](Cc1ccccc1)C(=O)N[C@@H](C(C)C)C(=O)N3)C(=O)N[C@@H](Cc1c[nH]cn1)C(=O)N[C@@H](CC(N)=O)C(=O)N[C@@H](Cc1c[nH]cn1)C(=O)N2 |  | ATCC 49775 | 24 h |  | MBC | 0.5 µM
CCCNC(=O)[C@H](Cc1ccc(O)cc1)NC(=O)[C@H]1NC(=O)[C@@H](c2ccc(O)cc2)NC(=O)[C@H](NC(=O)[C@H](CC(N)=O)NC(=O)[C@@H](Cc2ccc(O)cc2)NC(=O)[C@@H](CC(C)C)NC)c2ccc(O)c(c2)Oc2ccc1cc2 | bacterial growth |  |  |  | IC50 | > 40 µM
CCCCCCCCCC(=O)OCCSC[C@H](N)C(=O)N[C@H](CCN)C(=O)N[C@@H](CCN)C(=O)N[C@@H](CCN)C(=O)N[C@@H](CC(C)C)C(=O)N[C@H](Cc1ccccc1)C(=O)N[C@@H](CCN)C(=O)N[C@@H](CCN)C(=O)N[C@@H](CC(C)C)C(N)=O |  | ATCC 6538 | 24 h, 37 °C |  | MBC | 8 µM
CCc1ccn2c(C(=O)N(C)Cc3ccccc3)c(C)nc2c1 | microbial growth | SG511 | 2 mM, 20 h |  | inhibition zone | 0 mm
COc1cc(OC)cc(B(O)O)c1 | crystal violet | USA300 wild type | 1 µM | baseline: wild type untreated | biofilm formation | 77% and 81.8% and 83%
C[C@H](N)[C@@H](CCCCCCCCCCCCCCC(=O)CCCCCCC[C@@H](O)[C@@H](C)N)O[C@@H]1O[C@H](CO)[C@H](O)[C@H](O)[C@H]1O | microbial growth, resazurin | ATCC12600 | 50 µM |  | inhibition | 98%
CC(C)[C@H]1NC(=O)[C@H](Cc2ccccc2)NC(=O)[C@@H](C(C)C)NC(=O)[C@@H](C)NC(=O)[C@H](CO)NC(=O)[C@@H](Cc2c(-c3ccc(-c4ccc5ccccc5c4)cc3)[nH]c3ccccc23)NC(=O)[C@@H](C)NC1=O | broth dilution |  |  |  | MIC90 | > 50 µM
CC1=C[C@@H](C)[C@H]2[C@@H]3C(=O)C(Cl)(Cl)C(=O)[C@H](C)C(=O)O[C@@H](C)/C=C/C=C\[C@@H](C)[C@@H]3C=C[C@@H]2C1 |  | Newman compound-resistant mutant Mt6, broth-selected | concentration not given | baseline: parent strain | MIC fold change | 8
COc1ccc(CC2[NH2+]CCc3cc(OC)c(OC)cc32)cc1OC.[Cl][Fe-]([Cl])([Cl])[Cl] (centres unmarked) |  |  | 24 h, 37 °C |  | MIC50 | 647 µM
Cc1ccc2nc(C)c(C(=O)NCc3ccccc3)n2c1 | microbial growth | SG511 | 2 mM |  | inhibition zone | 0 mm
CN[C@H](CC(C)C)C(=O)N[C@H]1C(=O)N[C@@H](CC(N)=O)C(=O)N[C@H]2C(=N)N[C@H]3C(=O)N[C@H](C(=O)N[C@H](C(=O)NCCCNC(=N)N)c4cc(O)cc(O)c4-c4cc3ccc4O)[C@H](O)c3ccc(c(Cl)c3)Oc3cc2cc(c3O[C@@H]2O[C@H](CO)[C@@H](O)[C@H](O)[C@H]2O[C@H]2C[C@](C)(NCc3ccc(-c4ccc(Cl)cc4)cc3)[C@H](O)[C@H](C)O2)Oc2ccc(cc2Cl)[C@H]1O |  | VRS2 VanA VRSA, mouse neutropenic thigh infection, thigh | subcutaneous, 25 and 12.5 mg/kg once at 2 h, 26 h |  | reduction of bacterial count | ≥ 1 log10 CFU/g
